Assay results pooled from the literature.
A part holds a random share of what one study measured. Changes are numbered by the printed parent chain.
UniProt Q9M1R4, sequence (whole entry, looked up): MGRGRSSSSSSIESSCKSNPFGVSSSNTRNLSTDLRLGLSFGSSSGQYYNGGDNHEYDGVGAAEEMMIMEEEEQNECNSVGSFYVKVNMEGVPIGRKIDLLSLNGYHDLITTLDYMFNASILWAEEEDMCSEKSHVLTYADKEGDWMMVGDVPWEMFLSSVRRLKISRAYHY
UniProt P93024, sequence (whole entry, looked up): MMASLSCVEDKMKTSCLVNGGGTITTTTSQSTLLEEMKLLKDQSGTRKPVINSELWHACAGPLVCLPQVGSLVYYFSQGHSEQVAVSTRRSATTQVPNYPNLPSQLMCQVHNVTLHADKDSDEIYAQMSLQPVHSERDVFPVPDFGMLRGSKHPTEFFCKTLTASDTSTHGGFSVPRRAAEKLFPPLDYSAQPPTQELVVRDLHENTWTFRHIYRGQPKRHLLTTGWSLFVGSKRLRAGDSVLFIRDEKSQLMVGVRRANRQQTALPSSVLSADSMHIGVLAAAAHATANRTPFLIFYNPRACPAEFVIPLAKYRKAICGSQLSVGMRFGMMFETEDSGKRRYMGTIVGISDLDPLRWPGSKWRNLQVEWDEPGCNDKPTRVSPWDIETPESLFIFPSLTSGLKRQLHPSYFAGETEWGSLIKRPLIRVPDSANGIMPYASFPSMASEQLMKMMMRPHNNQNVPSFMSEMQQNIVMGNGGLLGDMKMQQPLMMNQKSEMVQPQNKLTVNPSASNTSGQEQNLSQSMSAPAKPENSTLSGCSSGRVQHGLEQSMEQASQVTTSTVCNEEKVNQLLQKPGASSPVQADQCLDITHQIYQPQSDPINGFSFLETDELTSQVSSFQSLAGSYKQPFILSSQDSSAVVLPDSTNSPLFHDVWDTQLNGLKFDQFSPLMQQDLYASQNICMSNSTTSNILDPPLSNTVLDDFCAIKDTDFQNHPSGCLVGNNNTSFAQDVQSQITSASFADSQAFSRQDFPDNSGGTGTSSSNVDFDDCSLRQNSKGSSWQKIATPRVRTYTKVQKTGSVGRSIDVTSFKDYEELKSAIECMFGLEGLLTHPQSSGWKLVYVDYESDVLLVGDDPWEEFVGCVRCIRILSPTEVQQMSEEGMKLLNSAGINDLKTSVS
UniProt Q9C5W9, sequence (whole entry, looked up): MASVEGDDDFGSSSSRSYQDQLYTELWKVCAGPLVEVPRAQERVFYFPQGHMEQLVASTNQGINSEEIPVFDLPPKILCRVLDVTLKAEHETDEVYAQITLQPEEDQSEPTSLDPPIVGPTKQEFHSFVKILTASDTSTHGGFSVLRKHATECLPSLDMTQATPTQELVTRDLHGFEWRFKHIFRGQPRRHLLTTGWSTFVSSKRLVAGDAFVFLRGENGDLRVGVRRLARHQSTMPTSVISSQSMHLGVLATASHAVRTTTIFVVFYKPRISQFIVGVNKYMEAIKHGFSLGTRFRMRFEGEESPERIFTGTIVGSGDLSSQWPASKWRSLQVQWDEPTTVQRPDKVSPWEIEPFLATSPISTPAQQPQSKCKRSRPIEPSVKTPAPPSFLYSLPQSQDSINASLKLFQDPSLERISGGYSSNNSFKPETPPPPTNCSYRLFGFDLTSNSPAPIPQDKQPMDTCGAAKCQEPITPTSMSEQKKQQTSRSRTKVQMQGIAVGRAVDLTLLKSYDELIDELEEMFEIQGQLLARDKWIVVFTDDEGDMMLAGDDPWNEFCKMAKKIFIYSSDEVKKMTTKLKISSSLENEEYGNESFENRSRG
UniProt P93830, sequence (whole entry, looked up): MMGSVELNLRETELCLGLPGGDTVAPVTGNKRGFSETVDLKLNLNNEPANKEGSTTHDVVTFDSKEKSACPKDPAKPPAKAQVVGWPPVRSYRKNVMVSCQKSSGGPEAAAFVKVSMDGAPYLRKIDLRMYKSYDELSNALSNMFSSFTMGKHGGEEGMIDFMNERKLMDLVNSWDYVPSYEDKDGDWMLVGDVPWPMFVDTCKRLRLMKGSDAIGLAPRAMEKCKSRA
UniProt Q9XFM0, sequence (whole entry, looked up): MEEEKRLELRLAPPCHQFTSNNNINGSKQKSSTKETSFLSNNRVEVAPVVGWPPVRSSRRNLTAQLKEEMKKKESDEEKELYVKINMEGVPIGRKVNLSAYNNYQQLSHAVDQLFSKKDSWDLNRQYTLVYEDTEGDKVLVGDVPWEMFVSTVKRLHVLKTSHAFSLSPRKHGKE
UniProt Q9FX25, sequence (whole entry, looked up): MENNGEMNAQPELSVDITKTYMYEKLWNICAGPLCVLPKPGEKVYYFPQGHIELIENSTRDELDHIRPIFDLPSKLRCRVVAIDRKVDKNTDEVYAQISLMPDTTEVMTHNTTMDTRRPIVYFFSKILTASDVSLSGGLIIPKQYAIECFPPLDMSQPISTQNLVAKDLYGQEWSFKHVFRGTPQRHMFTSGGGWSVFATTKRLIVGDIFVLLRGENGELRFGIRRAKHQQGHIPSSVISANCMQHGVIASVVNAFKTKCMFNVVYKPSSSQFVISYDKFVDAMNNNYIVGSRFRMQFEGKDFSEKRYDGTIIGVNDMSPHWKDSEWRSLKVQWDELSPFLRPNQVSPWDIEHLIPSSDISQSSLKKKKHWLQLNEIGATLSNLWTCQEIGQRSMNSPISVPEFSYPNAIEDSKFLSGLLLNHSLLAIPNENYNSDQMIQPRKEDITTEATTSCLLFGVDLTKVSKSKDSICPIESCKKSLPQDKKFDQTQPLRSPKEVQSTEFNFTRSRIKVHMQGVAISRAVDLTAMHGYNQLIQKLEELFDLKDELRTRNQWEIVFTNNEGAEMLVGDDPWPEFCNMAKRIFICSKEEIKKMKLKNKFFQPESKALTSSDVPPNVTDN

Set 1
Molecule: B1 (IAA10)
Method: two-hybrid
Reading: higher = firmer interaction
Measurement: positive tests
B1: IAA10 (Arabidopsis thaliana, UniProt Q38828); chain MNGLQEVCSSSGSVMIGLPAEEDENAAHSSEDSSCPDESVSETELDLALGLSIGRRKVRSSLSSSSSSLTRESGTKRSADSSPAAASNATRQVAVGWPPLRTYRINSLVNQAKSLATEGGLSSGIQKETTKSVVVAAKNDDACFIKSSRTSMLVKVTMDGVIIGRKVDLNALDSYAALEKTLDLMFFQIPSPVTRSNTQGYKTIKETCTSKLLDGSSEYIITYQDKDGDWMLVGDVPWQMFLGSVTRLRIMKTSIGAGVGK
ARF5 788-902 (Arabidopsis thaliana, UniProt P93024); baseline: out of 4 tests: 2
ARF18 482-602 (Arabidopsis thaliana, UniProt Q9C5W9); baseline: out of 4 tests: 2
IAA28 (Arabidopsis thaliana, UniProt Q9XFM0); baseline: out of 4 tests: 2
IAA17 (Arabidopsis thaliana, UniProt P93830); baseline: out of 4 tests: 3
ARF13 (Arabidopsis thaliana, UniProt Q9FX25); baseline: out of 2 tests: 0
IAA30 (Arabidopsis thaliana, UniProt Q9M1R4); weak activation fusion; baseline: out of 4 tests: 2

Set 2
Target: Ras GTPase-activating protein-binding protein 1, RRM domain (G3BP1, Homo sapiens, UniProt Q13283)
UniProt Q13283, sequence (whole entry, looked up): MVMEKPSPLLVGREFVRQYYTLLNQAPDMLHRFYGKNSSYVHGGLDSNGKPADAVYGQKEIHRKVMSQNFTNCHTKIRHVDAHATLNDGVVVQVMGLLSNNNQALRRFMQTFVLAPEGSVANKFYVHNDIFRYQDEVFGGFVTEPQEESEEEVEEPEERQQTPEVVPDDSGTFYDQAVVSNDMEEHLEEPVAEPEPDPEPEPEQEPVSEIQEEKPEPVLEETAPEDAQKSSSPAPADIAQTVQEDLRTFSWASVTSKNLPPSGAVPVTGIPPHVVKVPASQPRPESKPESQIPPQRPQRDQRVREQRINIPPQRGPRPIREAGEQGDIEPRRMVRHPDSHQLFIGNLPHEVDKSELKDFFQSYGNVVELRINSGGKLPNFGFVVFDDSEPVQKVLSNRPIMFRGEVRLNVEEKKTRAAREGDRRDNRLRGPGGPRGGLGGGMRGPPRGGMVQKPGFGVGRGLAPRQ
Method: RNA Bind-n-Seq
Form: RNA
Sample: in vitro
Concentration: 1 µM
Setting: whole 134-nt RNA, ends assumed
Added: 150 mM KCl
Baseline: input library
Reading: higher = stronger binding
Measurement: log2 enrichment
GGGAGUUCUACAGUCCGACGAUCUUGGGUUCAAUAUACGGAGAGUGCCCUGUGCCAAAGCCACGAGUUGAUCGUCCAAGAAAAGUUCCUGUGAUACAAGAGGAGAGGGCAAUGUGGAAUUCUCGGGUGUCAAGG: -0.291
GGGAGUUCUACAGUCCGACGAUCUGUGCUACACAUCGUAUGUACCGAAUCGGGUUUUUUUGGGGUUUUUUUGGGUUUUUUUGGGGAAAGUAUUAUGUUACGCCGUUCGGAUCUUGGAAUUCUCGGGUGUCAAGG: -0.0592
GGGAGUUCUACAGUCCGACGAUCUGUGCUACACAUCGUAUGUACCGAAUCGGGGUUUUUUUGGGGUUUUUUUGGGGUUUUUUUGGAAAGUAUUAUGUUACGCCGUUCGGAUCUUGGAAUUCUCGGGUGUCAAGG: -0.111
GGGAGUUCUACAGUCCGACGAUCCUGUGCUACACAUCGUAUGUACCGAAUCGGGUUUUUUUGGGUUUUUUUGGUUUUUUUGGGGAAAGUAUUAUGUUACGCCGUUCGGAUCUGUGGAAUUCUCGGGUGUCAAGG: -0.211
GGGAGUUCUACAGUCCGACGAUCCCUGUGCUACACAUCGUAUGUACCGAAUCGGAAAAAAGGGGAAAAAAGGGGAAAAAAGGGAAAGUAUUAUGUUACGCCGUUCGGAUCUGCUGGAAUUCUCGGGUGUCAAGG: -0.0748
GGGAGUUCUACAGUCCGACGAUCACCAUGCAGGUGGGCAUCUUUGGGAAGGGGGGCAAGGGGGGGAUAGGGAGGGGGGUAACACUUUGGGAACAGGUGGUCCCAGGUCGUUUCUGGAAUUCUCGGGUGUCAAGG: -0.543
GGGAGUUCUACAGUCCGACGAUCAGUCCUGUGCUACACAUCGUAUGUACCGAAUCGGGUUUUUGGGUGGGAAAAAAAGGGAAAGUAUUAUGUUACGCCGUUCGGAUCUGCACUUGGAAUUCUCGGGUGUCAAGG: 0.232
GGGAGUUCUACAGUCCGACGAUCCAAGUCCUGUGCUACACAUCGUAUGUACCGAAUCGGGCCCGGGGCCCGGCCCGGGAAAGUAUUAUGUUACGCCGUUCGGAUCUGCACUUCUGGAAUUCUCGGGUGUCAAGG: -0.644
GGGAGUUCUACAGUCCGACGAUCAAGUCCUGUGCUACACAUCGUAUGUACCGAAUCGGUUUGGUUUUUGGAAAAAAAGGAAAGUAUUAUGUUACGCCGUUCGGAUCUGCACUUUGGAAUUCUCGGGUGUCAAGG: -0.136
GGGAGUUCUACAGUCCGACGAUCACCAUGCAGGUGGGCAUCUUUGCGAAGUGGGGCAAGGGGGGGAUAGGGAGGGGGGUAACACUUUGGGAACAGGUGGUCCCAGGUCGUUUCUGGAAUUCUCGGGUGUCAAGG: -0.425
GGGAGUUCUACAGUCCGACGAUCAGUCCUGUGCUACACAUCGUAUGUACCGAAUCGGGAAAAAGGAAAAAGGAAAAAGGGGAAAGUAUUAUGUUACGCCGUUCGGAUCUGCACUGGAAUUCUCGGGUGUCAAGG: 0.000119
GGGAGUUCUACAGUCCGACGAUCUGGCCCUGGUGGCAUGCGGGGAGGAAGAGGUGGCCUCAUGGAUCGUGGUGGCCCCGGUGGAAUGUUCAGAGGUGGCCGUGGUGGAGACAGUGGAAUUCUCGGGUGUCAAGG: 0.0909
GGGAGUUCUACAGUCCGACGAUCCAAGUCCUGUGCUACACAUCGUAUGUACCGAAUCGGUUUGGGUUUGGGGUUUGGGAAAGUAUUAUGUUACGCCGUUCGGAUCUGCACUUCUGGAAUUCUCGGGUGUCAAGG: -0.331
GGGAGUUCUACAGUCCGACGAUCCUGUGCUACACAUCGUAUGUACCGAAUCGGGGAAAAAAGGGGAAAAAAGGGGAAAAAAGGGGAAAGUAUUAUGUUACGCCGUUCGGAUCUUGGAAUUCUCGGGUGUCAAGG: 0.65

Set 3
Target: Histone acetyltransferase KAT6A, winged helix 2, GST fusion (KAT6A, Homo sapiens, UniProt Q92794, residues 85-181)
Method: protein binding microarray
Form: double-stranded DNA, one strand shown
Sample: in vitro
Concentration: not given
Setting: 8-mer, flanks averaged, mean of 2 arrays, mostly near background
Baseline: not given
Reading: higher = stronger binding
Measurement: E-score
Target sequence (chain): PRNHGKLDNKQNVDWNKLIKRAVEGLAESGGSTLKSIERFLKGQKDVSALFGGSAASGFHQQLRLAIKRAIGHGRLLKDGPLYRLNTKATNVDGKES
GGGACTAA: 0.101
CTACGTTC: -0.0132
CACCCCTC: -0.0229
ACGACGGG: 0.119
AAAGCACC: 0.0476
CATATCCG: -0.0226
ACTTAAAC: -0.00653
ACTTCTGC: 0.0117
CCGCAAGC: -0.0742
CATTGGGC: -0.0614
GCCCAATA: 0.00613
AGAGTTCC: -0.134
CAGGAACC: -0.0506
ACCAGCAG: -0.0139
CACGGACA: -0.0141
CACGTCCG: -0.167
AAGCCAGG: 0.0477
ACAGGGGG: -0.0222
AGTGCTAG: -0.11
CAGTTGCA: 0.0108
GTGTAGAA: -0.0869
GGAGGCAA: 0.00594
ACCATCGC: 0.0214
CTGTGCCC: 0.0995

Set 4
Target: CCNA1, cyclin fold, Cln2 fusion (human)
Method: yeast growth competition, sequencing
Sample: yeast
Setting: strong parent motif
Baseline: not given
Reading: higher = stronger binding
Measurement: normalised enrichment score
Starting sequence: E2F1 docking peptide (human); PPVKRRLDFETDH
PPVKRRLDFEADH [T11A]: 1.55
PPVKRRLDFDTDH [E10D]: 1.66
PPYKRRLDFETDH [V3Y]: 0.74
PPVKRRLDFETHH [D12H]: 1.82
PPVKRRSDFETDH [L7S]: -0.217
PPVSRRLDFETDH [K4S]: 1.47
PPKKRRLDFETDH [V3K]: 0.565
PPVKRRRDFETDH [L7R]: 0.214
PPVKRRLDFETGH [D12G]: 2
PVVKRRLDFETDH [P2V]: 1.93
PPVKRRWDFETDH [L7W]: 0.366
PPSKRRLDFETDH [V3S]: 1.7
PPVKRRLDFSTDH [E10S]: 1.51
PPVHRRLDFETDH [K4H]: 1.66
PPDKRRLDFETDH [V3D]: -0.181
PPVKRKLDFETDH [R6K]: 1.71
PPVKRRLDFETTH [D12T]: 1.4
PPVKRRLDFEEDH [T11E]: 1.66
PPVKRRLFFETDH [D8F]: 1.76
PPVKRRLIFETDH [D8I]: 1.55
PPVKRRCDFETDH [L7C]: 0.5
PPVKRRLPFETDH [D8P]: 1.26
PPVKRRLDEETDH [F9E]: 0.572

Set 5
Target: ABI1, truncated, D143A, DHFR fusion (Arabidopsis thaliana)
Method: DHFR PCA, deep sequencing
Sample: yeast
Setting: methotrexate growth selection, single substitutions
Added: (+)-ABA 58 µM
Baseline: wild-type fitted maximum
Reading: higher = stronger binding
Measurement: relative binding score
Starting sequence: PYL1, truncated, DHFR fusion (Arabidopsis thaliana); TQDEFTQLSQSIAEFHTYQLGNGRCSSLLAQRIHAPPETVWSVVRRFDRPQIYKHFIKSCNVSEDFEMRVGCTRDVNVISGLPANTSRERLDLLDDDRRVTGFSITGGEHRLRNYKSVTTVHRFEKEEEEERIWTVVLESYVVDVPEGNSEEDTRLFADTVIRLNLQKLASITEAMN; partner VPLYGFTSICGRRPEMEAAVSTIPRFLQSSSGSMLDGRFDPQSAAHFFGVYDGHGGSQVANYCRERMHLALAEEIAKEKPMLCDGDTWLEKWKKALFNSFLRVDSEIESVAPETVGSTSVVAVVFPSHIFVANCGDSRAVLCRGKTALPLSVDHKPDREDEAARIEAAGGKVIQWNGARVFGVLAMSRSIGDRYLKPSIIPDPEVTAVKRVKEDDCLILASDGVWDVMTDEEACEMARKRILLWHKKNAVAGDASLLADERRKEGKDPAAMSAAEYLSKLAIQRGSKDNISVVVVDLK
T106K: 57.6%
D153F: -4.06%
P36Q: 70.6%
D75S: 86.5%
T17M: 68.9%
N177V: 78.6%
D65N: 86.6%
E130M: 91%
S117W: -13.5%
K116F: 15.3%
R32Y: 85.7%
R24M: 86.3%
S59C: 75.9%
E139M: 69.6%
E67Q: 87.9%
R98A: 77.5%
S171T: 84.4%
E174Q: 75.2%
F157P: -1.49%
L164N: 67.8%
A84M: 24.2%
L28C: 72.7%
S104V: 34.4%

Set 6
Target: CREM, bZIP domain (human)
Method: DHFR protein complementation
Sample: yeast
Setting: single substitutions, most at no-binding floor
Baseline: wild-type JUN-FOS pair
Reading: higher = stronger binding
Measurement: binding fitness
Starting sequence: JUN, bZIP domain (human); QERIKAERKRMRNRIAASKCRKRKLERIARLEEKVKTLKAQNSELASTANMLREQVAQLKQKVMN; partner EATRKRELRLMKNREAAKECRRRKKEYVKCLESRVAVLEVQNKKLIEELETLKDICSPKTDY
S47H: -1.49 natural log
S47P: -1.52 natural log
N42M: -1.48 natural log
L38K: -1.53 natural log
A49S: -1.41 natural log
Q41N: -1.47 natural log
K39R: -1.4 natural log
N42S: -1.49 natural log
L31M: -1.23 natural log
E32V: -1.58 natural log
N42D: -1.45 natural log
A40P: -1.52 natural log
Q55P: -1.57 natural log
A29S: -1.42 natural log

For quick reference, copied from above (set 5):
E174Q: 75.2%
S104V: 34.4%
E130M: 91%
R32Y: 85.7%
T106K: 57.6%
F157P: -1.49%
A84M: 24.2%
E139M: 69.6%
